Experimental data from different studies.
Each numbered part is a random draw from the data of one study; scales do not carry over between parts. Positions count from the first letter of the parent shown.
UniProt Q13557, sequence (whole entry, looked up): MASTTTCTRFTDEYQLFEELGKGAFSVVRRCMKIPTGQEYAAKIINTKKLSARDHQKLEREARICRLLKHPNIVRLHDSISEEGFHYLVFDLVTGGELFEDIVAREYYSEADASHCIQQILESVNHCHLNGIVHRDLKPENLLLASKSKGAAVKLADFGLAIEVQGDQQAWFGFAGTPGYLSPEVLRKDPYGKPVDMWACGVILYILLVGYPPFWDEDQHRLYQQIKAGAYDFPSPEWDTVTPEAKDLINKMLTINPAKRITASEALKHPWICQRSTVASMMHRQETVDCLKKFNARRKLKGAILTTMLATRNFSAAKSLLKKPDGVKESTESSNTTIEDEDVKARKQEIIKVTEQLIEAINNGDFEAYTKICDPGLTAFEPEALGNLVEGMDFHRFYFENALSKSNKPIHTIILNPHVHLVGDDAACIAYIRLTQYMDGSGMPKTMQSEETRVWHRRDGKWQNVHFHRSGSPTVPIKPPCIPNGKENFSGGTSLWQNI
UniProt P78368, sequence (whole entry, looked up): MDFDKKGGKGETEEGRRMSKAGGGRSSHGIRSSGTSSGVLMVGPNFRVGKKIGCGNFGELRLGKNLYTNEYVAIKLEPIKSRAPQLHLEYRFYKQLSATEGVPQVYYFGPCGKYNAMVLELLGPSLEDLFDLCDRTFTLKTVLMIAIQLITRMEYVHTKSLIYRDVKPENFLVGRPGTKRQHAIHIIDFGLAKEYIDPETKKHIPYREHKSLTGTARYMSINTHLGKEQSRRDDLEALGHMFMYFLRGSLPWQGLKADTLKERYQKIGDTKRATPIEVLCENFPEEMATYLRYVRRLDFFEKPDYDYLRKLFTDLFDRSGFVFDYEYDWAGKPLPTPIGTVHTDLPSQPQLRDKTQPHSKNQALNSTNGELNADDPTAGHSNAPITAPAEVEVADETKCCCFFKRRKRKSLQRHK
UniProt Q99640, sequence (whole entry, looked up): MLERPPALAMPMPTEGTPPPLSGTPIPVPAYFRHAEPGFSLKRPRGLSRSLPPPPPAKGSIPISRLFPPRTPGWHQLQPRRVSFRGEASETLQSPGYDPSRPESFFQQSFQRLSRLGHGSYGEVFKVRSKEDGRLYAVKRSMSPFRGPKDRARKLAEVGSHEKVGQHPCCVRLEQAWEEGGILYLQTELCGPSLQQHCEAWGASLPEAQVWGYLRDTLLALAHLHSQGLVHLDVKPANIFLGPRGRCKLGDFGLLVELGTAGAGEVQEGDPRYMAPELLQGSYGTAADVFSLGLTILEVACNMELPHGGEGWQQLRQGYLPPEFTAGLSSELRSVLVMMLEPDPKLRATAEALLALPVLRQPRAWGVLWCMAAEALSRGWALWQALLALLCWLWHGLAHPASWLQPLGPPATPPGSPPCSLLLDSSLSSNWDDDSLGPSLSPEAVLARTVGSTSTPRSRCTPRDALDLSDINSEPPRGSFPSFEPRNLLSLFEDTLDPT
UniProt Q8N752, sequence (whole entry, looked up): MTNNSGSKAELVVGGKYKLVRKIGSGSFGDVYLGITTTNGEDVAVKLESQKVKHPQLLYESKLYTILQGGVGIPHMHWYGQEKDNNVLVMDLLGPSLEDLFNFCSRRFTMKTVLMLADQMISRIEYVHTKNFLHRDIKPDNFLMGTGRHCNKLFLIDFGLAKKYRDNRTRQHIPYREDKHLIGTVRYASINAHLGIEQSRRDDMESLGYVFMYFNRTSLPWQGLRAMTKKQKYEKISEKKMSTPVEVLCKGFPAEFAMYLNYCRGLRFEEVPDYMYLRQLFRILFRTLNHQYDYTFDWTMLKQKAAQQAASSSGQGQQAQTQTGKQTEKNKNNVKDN
UniProt Q5VT25, sequence (whole entry, looked up): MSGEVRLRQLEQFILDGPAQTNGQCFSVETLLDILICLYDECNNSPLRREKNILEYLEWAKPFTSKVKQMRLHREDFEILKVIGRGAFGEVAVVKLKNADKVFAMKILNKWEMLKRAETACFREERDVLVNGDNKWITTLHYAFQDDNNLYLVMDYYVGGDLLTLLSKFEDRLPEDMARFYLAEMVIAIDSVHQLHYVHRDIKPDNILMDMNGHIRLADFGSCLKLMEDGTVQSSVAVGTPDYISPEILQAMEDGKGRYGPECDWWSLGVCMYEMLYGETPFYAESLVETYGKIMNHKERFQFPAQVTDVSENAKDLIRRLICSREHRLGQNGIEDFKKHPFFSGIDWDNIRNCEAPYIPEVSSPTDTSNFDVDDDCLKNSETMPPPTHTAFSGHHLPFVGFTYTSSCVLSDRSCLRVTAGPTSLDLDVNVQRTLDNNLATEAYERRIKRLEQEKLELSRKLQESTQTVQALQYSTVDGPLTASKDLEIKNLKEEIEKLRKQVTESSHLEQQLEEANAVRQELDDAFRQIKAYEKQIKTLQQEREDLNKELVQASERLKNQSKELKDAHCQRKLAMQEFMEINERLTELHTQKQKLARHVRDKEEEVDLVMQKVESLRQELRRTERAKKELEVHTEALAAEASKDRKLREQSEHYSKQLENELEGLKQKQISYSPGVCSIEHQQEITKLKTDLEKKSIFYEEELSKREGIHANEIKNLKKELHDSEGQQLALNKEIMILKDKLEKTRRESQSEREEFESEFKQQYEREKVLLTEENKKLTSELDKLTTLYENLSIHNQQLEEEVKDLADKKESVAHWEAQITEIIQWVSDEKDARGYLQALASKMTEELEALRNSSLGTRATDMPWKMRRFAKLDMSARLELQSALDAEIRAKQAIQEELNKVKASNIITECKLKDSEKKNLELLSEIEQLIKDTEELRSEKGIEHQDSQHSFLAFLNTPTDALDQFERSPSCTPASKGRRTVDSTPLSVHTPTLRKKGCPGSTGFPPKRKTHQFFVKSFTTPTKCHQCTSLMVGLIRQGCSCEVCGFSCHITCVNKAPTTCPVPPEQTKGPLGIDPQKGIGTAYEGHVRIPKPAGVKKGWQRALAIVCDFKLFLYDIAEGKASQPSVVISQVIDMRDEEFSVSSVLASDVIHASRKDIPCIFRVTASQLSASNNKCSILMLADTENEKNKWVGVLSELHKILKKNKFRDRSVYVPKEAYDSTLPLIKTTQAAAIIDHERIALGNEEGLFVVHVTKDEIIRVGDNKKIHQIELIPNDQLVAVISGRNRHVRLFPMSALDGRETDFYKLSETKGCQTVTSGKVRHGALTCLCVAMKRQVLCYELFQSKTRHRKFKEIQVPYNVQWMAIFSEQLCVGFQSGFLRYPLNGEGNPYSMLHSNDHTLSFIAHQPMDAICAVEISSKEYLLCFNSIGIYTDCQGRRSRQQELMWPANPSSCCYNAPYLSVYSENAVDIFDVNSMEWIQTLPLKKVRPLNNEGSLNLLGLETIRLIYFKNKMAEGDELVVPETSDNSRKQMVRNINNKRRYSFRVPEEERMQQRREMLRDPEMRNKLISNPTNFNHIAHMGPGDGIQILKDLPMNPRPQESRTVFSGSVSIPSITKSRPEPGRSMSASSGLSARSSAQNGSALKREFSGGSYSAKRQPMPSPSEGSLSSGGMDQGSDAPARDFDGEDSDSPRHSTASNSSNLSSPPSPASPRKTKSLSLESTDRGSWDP
UniProt P25098, sequence (whole entry, looked up): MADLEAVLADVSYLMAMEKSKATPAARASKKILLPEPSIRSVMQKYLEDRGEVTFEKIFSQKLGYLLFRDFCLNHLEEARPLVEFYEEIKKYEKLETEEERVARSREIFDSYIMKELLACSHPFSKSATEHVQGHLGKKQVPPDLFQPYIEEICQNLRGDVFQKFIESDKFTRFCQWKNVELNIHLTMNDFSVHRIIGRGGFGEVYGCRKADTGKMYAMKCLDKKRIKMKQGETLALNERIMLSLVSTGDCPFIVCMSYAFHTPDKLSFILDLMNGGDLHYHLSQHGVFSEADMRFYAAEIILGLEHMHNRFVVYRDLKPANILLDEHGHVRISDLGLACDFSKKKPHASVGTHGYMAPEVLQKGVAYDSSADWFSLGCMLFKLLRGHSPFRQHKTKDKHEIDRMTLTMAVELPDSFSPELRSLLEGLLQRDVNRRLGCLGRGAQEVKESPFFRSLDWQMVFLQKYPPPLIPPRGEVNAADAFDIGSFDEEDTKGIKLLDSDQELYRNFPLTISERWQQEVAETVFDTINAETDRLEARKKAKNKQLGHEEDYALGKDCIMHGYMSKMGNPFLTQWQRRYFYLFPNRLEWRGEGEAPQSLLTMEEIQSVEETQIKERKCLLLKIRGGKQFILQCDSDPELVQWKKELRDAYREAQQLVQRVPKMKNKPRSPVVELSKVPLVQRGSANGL

Set 1
SMILES: CNC(=O)c1ccc(-c2cnn3ccc(C(=O)N(C)c4ccc(Cl)c(C(=O)O)c4)cc23)cc1
Mode: inhibitor
Endpoint: IC50
Casein kinase I isoform delta (CSNK1D, Homo sapiens, UniProt P48730); enzyme activity: > 30 µM
Cyclin-dependent kinase 2 (CDK2, Homo sapiens, UniProt P24941); enzyme activity: > 30 µM
Prostaglandin G/H synthase 2 (PTGS2, Homo sapiens, UniProt P35354); cell-free assay: > 30 µM
Aurora kinase A (AURKA, Homo sapiens, UniProt O14965); enzyme activity: 15 µM
eIF-2-alpha kinase GCN2 (EIF2AK4, Homo sapiens, UniProt Q9P2K8); enzyme activity: > 30 µM

Set 2
Structure (SMILES): N#CC1(c2ccccn2)CCN(Cc2cc(C(=O)O)c(=O)n3ccccc23)CC1
Observed: cell-free assay
Method: competition with immobilised ligand
Concentration: 1 µM
Endpoint: remaining binding
Casein kinase I isoform gamma-2 (CSNK1G2, Homo sapiens, UniProt P78368): 91%
Calcium/calmodulin-dependent protein kinase type II subunit delta (CAMK2D, Homo sapiens, UniProt Q13557): 100%
cAMP-dependent protein kinase catalytic subunit beta (PRKACB, Homo sapiens, UniProt P22694): 92%
Mitogen-activated protein kinase kinase kinase 4 (MAP3K4, Homo sapiens, UniProt Q9Y6R4): 100%
Serine/threonine-protein kinase MRCK alpha (CDC42BPA, Homo sapiens, UniProt Q5VT25): 100%
Dual serine/threonine and tyrosine protein kinase (DSTYK, Homo sapiens, UniProt Q6XUX3): 75%
Beta-adrenergic receptor kinase 1 (GRK2, Homo sapiens, UniProt P25098): 93%
Membrane-associated tyrosine- and threonine-specific cdc2-inhibitory kinase (PKMYT1, Homo sapiens, UniProt Q99640): 100%
Phosphatidylinositol 4-phosphate 3-kinase C2 domain-containing subunit beta (PIK3C2B, Homo sapiens, UniProt O00750): 97%
Epidermal growth factor receptor (EGFR, Homo sapiens, UniProt P00533, L861Q): 100%
Cyclin-dependent kinase 18 (CDK18, Homo sapiens, UniProt Q07002): 100%
Phosphatidylinositol 4,5-bisphosphate 3-kinase catalytic subunit alpha isoform (PIK3CA, Homo sapiens, UniProt P42336, Q546K): 58%
Epidermal growth factor receptor (EGFR, Homo sapiens, UniProt P00533, T790M): 100%
Epidermal growth factor receptor (EGFR, Homo sapiens, UniProt P00533, del747-752/P753S): 100%
Dual specificity tyrosine-phosphorylation-regulated kinase 2 (DYRK2, Homo sapiens, UniProt Q92630): 95%
Casein kinase I isoform alpha-like (CSNK1A1L, Homo sapiens, UniProt Q8N752): 100%
Phosphatidylinositol 4-phosphate 5-kinase type-1 alpha (PIP5K1A, Homo sapiens, UniProt Q99755): 100%
Tyrosine-protein kinase ABL1, phosphorylated (ABL1, Homo sapiens, UniProt P00519, Q252H): 72%

Set 3
Target: Calcium/calmodulin-dependent protein kinase type II subunit alpha (CAMK2A, Homo sapiens, UniProt Q9UQM7)
UniProt Q9UQM7, sequence (whole entry, looked up): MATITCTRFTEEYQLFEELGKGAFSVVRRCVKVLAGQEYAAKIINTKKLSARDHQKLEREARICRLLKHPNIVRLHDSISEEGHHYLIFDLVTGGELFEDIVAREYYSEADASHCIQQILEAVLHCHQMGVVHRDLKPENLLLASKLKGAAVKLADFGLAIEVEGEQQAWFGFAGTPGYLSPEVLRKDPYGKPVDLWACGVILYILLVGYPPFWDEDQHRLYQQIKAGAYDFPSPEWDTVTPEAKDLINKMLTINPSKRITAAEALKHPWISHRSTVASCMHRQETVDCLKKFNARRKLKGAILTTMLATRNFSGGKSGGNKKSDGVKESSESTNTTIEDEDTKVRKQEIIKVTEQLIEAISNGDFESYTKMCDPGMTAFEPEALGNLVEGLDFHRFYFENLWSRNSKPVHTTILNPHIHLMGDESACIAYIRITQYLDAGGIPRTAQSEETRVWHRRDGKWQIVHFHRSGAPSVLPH
Observed: enzyme activity
Mode: inhibitor
Concentration: 10 µM
Endpoint: inhibition
CC(=O)OC[C@@]12CC[C@@H](C)[C@](C)(CCC3=CC(=O)OC3)[C@H]1C[C@H](O)C=C2CO: -14%
Oc1cc(O)c2c(c1)O[C@H](c1cc(O)c(O)c(O)c1)[C@@H](O)C2: -35%
N=C(N)N: -9%
CCC(=O)CO: -35%
CN(C(=O)C(Cl)Cl)c1ccc(O)cc1: -8%
Cc1cn([C@H]2C[C@H](O)[C@@H](CO)O2)c(=O)[nH]c1=O: 2%
C[C@H]1CO[C@@H]2Cn3cc(C(=O)NCc4ccc(F)cc4F)c(=O)c(O)c3C(=O)N12: 3%
CCCCCOC(=O)Nc1nc(=O)n([C@@H]2O[C@H](C)[C@@H](O)[C@H]2O)cc1F: 2%

Set 4
Target: vanadate, free oxyanion
Method: microfluidic competitive inhibition
Matrix: in vitro, cell-free expressed
Concentration: not given
Notes: derived from inhibition constants, unchanged parent 676 nM
Direction: lower = stronger binding
Endpoint: oxyanion analog dissociation constant
Starting sequence: PafA, mature enzyme, eGFP fusion (Elizabethkingia meningoseptica, UniProt Q9KJX5); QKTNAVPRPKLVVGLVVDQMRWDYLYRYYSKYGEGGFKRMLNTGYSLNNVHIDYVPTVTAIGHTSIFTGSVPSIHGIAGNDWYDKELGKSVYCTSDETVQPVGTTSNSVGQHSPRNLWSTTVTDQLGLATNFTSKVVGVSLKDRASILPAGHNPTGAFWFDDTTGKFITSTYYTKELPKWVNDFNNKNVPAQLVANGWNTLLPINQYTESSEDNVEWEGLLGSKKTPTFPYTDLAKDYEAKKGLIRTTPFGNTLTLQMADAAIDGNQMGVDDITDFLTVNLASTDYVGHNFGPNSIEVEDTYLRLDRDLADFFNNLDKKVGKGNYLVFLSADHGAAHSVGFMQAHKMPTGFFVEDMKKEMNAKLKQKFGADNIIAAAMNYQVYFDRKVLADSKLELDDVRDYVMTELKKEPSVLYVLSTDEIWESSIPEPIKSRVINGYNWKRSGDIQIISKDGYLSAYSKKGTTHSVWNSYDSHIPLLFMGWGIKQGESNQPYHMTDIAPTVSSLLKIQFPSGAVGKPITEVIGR
V399G: 562 nM
Y29G: 694 nM
T3G: 602 nM
R8V: 652 nM
E299G: 1010 nM
G292A: 606 nM
D401G: 800 nM

Single results of other studies
Target: Cyclin-dependent kinase 9, with cyclin T1 (CDK9, Homo sapiens, UniProt P50750)
UniProt P50750, sequence (whole entry, looked up): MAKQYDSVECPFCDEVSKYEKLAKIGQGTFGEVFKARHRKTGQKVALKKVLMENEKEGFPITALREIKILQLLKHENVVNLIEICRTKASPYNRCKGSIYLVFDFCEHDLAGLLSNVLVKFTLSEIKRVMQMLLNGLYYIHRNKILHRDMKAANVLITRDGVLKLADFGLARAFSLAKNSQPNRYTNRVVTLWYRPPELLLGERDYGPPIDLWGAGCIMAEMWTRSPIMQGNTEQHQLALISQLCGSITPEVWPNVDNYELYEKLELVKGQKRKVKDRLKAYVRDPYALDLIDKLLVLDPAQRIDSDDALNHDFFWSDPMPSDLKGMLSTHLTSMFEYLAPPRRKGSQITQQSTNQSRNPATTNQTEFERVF
Observed: cell-free assay
Concentration: 0.5 µM
COc1cc2ncnc(Nc3ccc(F)c(Cl)c3)c2cc1OCCCN1CCOCC1 — remaining signal: 87.3%
CS(=O)(=O)CCNCc1ccc(-c2ccc3ncnc(Nc4ccc(OCc5cccc(F)c5)c(Cl)c4)c3c2)o1 — remaining signal: 85.2%

Excerpt of the above (set 2):
Mitogen-activated protein kinase kinase kinase 4 (MAP3K4, Homo sapiens, UniProt Q9Y6R4): 100%
Cyclin-dependent kinase 18 (CDK18, Homo sapiens, UniProt Q07002): 100%
